Experimental data gathered from unrelated publications.
Parts stem from different laboratories: compare values within a part only.
Chain of UniProt Q05655 (whole entry, looked up): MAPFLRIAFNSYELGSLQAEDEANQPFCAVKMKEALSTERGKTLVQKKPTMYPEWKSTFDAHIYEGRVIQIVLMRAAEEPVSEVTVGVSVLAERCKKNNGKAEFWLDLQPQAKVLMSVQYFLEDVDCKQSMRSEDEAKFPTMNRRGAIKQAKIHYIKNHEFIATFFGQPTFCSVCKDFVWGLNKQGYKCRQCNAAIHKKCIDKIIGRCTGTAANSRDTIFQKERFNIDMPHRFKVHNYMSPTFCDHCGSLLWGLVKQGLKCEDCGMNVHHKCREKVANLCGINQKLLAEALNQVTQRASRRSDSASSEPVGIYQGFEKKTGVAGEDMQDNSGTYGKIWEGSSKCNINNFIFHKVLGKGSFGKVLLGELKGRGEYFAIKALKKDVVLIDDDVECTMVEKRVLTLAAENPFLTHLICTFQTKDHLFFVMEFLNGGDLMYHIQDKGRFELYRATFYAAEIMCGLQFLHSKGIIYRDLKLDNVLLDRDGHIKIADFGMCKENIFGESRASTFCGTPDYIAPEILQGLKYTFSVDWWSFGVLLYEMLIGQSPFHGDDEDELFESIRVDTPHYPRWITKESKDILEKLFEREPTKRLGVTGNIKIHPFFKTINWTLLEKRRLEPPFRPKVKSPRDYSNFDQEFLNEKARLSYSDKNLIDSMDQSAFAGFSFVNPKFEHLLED
Chain of UniProt Q9HBH9 (whole entry, looked up): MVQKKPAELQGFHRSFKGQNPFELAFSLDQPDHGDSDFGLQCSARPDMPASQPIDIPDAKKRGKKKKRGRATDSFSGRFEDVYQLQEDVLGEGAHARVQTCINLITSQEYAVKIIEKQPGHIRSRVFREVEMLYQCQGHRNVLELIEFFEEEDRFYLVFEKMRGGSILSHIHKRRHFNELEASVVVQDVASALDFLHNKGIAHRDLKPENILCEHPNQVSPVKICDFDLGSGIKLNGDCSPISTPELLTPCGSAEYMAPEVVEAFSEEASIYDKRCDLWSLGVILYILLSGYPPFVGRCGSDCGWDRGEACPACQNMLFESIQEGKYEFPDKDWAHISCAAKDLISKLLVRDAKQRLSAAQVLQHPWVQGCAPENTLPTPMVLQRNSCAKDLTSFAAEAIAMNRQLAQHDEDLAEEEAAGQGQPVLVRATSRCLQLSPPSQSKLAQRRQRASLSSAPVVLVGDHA
Chain of UniProt P10721 (whole entry, looked up): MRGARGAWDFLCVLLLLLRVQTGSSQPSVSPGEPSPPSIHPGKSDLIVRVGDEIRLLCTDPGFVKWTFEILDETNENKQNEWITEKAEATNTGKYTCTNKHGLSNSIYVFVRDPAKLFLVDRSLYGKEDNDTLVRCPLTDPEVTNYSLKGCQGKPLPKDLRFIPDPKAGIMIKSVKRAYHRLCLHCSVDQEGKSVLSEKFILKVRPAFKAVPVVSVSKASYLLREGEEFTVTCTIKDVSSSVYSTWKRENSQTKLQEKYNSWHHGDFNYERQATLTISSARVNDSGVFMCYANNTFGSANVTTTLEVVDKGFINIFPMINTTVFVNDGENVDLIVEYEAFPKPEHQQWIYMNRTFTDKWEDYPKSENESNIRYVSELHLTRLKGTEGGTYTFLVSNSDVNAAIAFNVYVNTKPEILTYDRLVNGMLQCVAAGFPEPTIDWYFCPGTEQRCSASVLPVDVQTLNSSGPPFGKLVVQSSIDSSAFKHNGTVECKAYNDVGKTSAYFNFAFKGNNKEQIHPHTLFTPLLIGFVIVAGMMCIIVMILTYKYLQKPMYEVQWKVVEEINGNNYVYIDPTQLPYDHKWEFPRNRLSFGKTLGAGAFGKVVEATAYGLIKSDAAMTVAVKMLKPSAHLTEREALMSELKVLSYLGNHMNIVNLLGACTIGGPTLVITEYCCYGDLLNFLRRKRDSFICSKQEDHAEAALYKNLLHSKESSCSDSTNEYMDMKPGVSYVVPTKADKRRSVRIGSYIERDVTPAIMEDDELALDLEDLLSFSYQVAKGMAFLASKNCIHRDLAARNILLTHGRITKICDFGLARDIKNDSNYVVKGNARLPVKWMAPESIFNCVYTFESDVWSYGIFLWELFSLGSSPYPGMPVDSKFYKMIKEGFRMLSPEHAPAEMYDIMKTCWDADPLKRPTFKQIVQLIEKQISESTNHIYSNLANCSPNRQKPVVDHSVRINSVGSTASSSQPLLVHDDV
Chain of UniProt P35916 (whole entry, looked up): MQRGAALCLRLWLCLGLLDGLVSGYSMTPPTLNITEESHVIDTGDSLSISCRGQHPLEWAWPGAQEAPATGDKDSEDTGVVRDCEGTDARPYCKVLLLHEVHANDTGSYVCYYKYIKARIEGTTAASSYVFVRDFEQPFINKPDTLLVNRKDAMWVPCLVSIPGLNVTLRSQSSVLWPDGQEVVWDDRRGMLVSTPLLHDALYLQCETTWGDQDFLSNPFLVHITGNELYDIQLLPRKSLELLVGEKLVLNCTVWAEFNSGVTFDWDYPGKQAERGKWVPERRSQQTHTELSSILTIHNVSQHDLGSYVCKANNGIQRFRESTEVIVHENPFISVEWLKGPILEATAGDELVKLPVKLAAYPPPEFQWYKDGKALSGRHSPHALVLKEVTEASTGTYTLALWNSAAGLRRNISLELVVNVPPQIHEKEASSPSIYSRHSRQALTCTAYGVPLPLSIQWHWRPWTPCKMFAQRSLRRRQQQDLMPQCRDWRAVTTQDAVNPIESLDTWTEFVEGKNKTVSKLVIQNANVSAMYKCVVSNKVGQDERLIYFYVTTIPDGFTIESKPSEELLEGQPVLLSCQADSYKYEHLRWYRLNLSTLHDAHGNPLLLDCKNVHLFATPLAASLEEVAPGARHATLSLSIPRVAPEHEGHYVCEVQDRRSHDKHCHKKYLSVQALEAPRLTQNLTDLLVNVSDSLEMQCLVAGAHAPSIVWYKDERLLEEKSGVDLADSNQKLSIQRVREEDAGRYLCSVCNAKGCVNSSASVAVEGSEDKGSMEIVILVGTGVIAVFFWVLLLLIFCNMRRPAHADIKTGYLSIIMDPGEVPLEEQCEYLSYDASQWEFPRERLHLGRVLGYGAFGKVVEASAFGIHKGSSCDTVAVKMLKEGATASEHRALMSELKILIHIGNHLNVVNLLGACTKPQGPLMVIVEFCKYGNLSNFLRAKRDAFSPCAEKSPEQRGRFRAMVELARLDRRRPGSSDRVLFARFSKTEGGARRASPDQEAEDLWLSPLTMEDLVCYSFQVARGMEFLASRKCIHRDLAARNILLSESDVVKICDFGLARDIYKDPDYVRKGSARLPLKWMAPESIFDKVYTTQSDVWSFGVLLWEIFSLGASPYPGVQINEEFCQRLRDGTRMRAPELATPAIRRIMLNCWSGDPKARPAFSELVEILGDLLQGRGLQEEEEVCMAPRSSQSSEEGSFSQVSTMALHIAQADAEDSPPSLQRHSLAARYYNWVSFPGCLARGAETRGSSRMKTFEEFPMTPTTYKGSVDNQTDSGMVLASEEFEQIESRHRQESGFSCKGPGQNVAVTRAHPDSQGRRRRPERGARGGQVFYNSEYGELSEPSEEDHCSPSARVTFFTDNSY
Chain of UniProt O75676 (whole entry, looked up): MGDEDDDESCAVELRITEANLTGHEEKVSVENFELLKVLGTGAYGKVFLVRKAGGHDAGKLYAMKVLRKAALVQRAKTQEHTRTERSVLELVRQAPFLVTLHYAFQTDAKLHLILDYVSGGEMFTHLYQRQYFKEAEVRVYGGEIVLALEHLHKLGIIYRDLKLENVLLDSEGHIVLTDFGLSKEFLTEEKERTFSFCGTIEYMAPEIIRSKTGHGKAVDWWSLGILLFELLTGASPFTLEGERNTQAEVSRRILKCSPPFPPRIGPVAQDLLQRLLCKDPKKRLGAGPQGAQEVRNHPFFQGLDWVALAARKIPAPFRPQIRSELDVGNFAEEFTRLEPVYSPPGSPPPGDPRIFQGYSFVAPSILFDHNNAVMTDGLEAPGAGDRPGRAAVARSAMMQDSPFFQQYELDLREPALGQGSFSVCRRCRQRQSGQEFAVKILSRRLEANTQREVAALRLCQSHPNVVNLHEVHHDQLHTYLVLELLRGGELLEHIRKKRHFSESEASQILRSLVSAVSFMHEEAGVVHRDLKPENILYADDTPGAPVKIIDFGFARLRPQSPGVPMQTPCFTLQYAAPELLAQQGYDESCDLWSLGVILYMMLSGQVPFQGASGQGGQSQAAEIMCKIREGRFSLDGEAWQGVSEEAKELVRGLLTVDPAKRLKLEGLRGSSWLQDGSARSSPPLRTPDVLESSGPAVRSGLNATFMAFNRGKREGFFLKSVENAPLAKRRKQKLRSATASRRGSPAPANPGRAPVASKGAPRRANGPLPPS

Block 1
SMILES: O=C(NCc1ncc(C(F)(F)F)cc1Cl)c1ccc2c(c1)C1(CCS(=O)(=O)CC1)[C@H](C1CC1)N2S(=O)(=O)c1ccc(F)cc1
Concentration: 1 µM
target	assay	remaining binding [%]
Mitogen-activated protein kinase kinase kinase 5 (MAP3K5, Homo sapiens, UniProt Q99683)	cell-free assay, competition with immobilised ligand	100
Serine/threonine-protein kinase 32A (STK32A, Homo sapiens, UniProt Q8WU08)	cell-free assay, competition with immobilised ligand	100
Tyrosine-protein kinase ABL1, phosphorylated (ABL1, Homo sapiens, UniProt P00519, F317I)	binding	83
Protein kinase C delta type (PRKCD, Homo sapiens, UniProt Q05655)	cell-free assay, competition with immobilised ligand	100
Rhodopsin kinase GRK1 (GRK1, Homo sapiens, UniProt Q15835)	cell-free assay, competition with immobilised ligand	80
Tyrosine-protein kinase Fes/Fps (FES, Homo sapiens, UniProt P07332)	cell-free assay, competition with immobilised ligand	100
Serine/threonine-protein kinase PAK 1 (PAK1, Homo sapiens, UniProt Q13153)	cell-free assay, competition with immobilised ligand	100
Vascular endothelial growth factor receptor 3 (FLT4, Homo sapiens, UniProt P35916)	cell-free assay, competition with immobilised ligand	92
Tyrosine-protein kinase receptor TYRO3 (TYRO3, Homo sapiens, UniProt Q06418)	cell-free assay, competition with immobilised ligand	100
Calcium/calmodulin-dependent protein kinase kinase 1 (CAMKK1, Homo sapiens, UniProt Q8N5S9)	cell-free assay, competition with immobilised ligand	100
Ribosomal protein S6 kinase alpha-4, C-terminal kinase domain (RPS6KA4, Homo sapiens, UniProt O75676)	cell-free assay, competition with immobilised ligand	91
Tyrosine-protein kinase ABL1, phosphorylated (ABL1, Homo sapiens, UniProt P00519, T315I)	cell-free assay, competition with immobilised ligand	90
Fibroblast growth factor receptor 3 (FGFR3, Homo sapiens, UniProt P22607)	cell-free assay, competition with immobilised ligand	100
Insulin-like growth factor 1 receptor (IGF1R, Homo sapiens, UniProt P08069)	cell-free assay, competition with immobilised ligand	100
Hepatocyte growth factor receptor (MET, Homo sapiens, UniProt P08581)	cell-free assay, competition with immobilised ligand	100
Ephrin type-A receptor 1 (EPHA1, Homo sapiens, UniProt P21709)	cell-free assay, competition with immobilised ligand	100
Proto-oncogene tyrosine-protein kinase ROS (ROS1, Homo sapiens, UniProt P08922)	cell-free assay, competition with immobilised ligand	100

Block 2
SMILES: CN(C)S(=O)(=O)c1ccc2c(c1)/C(=C/c1cc3c([nH]1)CCCC3)C(=O)N2
Read-out: enzyme activity
Action: inhibitor
Concentration: 0.5 µM
Reference: control
target	remaining activity
Leucine-rich repeat serine/threonine-protein kinase 2 (LRRK2, Homo sapiens, UniProt Q5S007)	1.78%
Serine/threonine-protein kinase Chk1 (CHEK1, Homo sapiens, UniProt O14757)	76.3%
Tyrosine-protein kinase BTK (BTK, Homo sapiens, UniProt Q06187)	97.4%
Mitogen-activated protein kinase kinase kinase kinase 2 (MAP4K2, Homo sapiens, UniProt Q12851)	20.8%
cGMP-dependent protein kinase 1 (PRKG1, Homo sapiens, UniProt Q13976)	82.5%
Protein kinase C iota type (PRKCI, Homo sapiens, UniProt P41743)	95.9%
RAC-gamma serine/threonine-protein kinase (AKT3, Homo sapiens, UniProt Q9Y243)	96.7%
Mitogen-activated protein kinase 12 (MAPK12, Homo sapiens, UniProt P53778)	103%
Protein kinase C delta type (PRKCD, Homo sapiens, UniProt Q05655)	95.5%
Interleukin-1 receptor-associated kinase 4 (IRAK4, Homo sapiens, UniProt Q9NWZ3)	57.7%
Mitogen-activated protein kinase 13 (MAPK13, Homo sapiens, UniProt O15264)	103%
Cyclin-dependent kinase 9, with cyclin T1 (CDK9, Homo sapiens, UniProt P50750)	95.9%
MAP kinase-interacting serine/threonine-protein kinase 2 (MKNK2, Homo sapiens, UniProt Q9HBH9)	84.1%
Mast/stem cell growth factor receptor Kit (KIT, Homo sapiens, UniProt P10721)	60.7%
Serine/threonine-protein kinase PLK2 (PLK2, Homo sapiens, UniProt Q9NYY3)	94.4%

Block 3
Host: human
Medium: microsomes or S9
Concentration: 2 µM
Time: 0.5 h
Compound	remaining compound [%]
Clc1nc(N2CCN(c3ccccn3)CC2)c2nc[nH]c2n1	66.9
O=C1CC(c2ccc(S(=O)(=O)N3CCOC(COc4ccccc4)C3)cc2)CN1 (centres unmarked)	44.3
COC(=O)N(C)CCCC1(C)C(=O)N(C)c2ccc(O)cc21 (centres unmarked)	61.4
Cc1ccc(OCCOCCN2CC(C)OC(C)C2)c(Br)c1 (centres unmarked)	0.146
O=C(c1ccccc1)c1cccc2c1N(C(=O)c1ccccc1)CC21CCCCC1	0.147
CCN1C(=O)C2(NC(C)Cc3c2[nH]c2ccccc32)c2ccccc21 (centres unmarked)	3.06
CCCOc1ccc(Oc2nc3ccccc3n3cnnc23)cc1	56
Cc1cc(F)c(S(N)(=O)=O)c(NCCCOC(C)C)c1	16.5

Block 4
Target: Beta-1 adrenergic receptor (ADRB1, Homo sapiens, UniProt P08588)
Chain of UniProt P08588 (whole entry, looked up): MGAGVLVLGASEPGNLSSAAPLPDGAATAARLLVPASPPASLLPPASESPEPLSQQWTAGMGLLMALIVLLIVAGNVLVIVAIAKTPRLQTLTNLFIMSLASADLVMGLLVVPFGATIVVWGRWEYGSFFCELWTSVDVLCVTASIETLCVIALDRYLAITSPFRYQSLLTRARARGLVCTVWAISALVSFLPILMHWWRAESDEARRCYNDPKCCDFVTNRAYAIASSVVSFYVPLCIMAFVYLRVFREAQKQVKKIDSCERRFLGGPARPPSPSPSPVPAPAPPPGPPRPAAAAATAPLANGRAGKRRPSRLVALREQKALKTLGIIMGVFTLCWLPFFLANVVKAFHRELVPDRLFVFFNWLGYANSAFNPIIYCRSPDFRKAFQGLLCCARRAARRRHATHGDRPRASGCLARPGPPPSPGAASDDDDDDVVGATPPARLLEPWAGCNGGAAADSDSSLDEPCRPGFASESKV
Action: agonist
Compound	EC50
COc1ccccc1C1CNC(=O)c2nc(CCN3CCC(C)CC3)[nH]c2C1 (centres unmarked)	≥ 100 µM
CN(C)CC(O)c1cc2n(n1)CCN(C(=O)CCc1ccc(=O)[nH]n1)C2 (centres unmarked)	≥ 100 µM
Cc1cc2ncn(CC(O)COc3ccc4ccccc4c3)c2cc1C (centres unmarked)	≥ 100 µM
CCN1C(=O)COC[C@@H]1[C@H](O)c1ccc(NC(=O)CCc2ccccc2)cc1	≥ 100 µM
O=C(Cc1ccccc1)Nc1ccc([C@@H](O)[C@H]2COCC(=O)N2Cc2ccccn2)cc1	≥ 100 µM
COc1ccc(OC)c(-c2cc(-c3ccccc3)nc3c(C)noc23)c1	≥ 100 µM
OC(CN1CCC(Cc2ccc(F)cc2)CC1)c1ccc(Cl)cc1 (centres unmarked)	≥ 100 µM
OC(c1ccccc1)c1nc(Nc2ccc(C(F)(F)F)cc2)n[nH]1 (centres unmarked)	≥ 100 µM
O=C(C1CCOCC1)N1CCCn2nc(C(O)c3ccccc3)cc2C1 (centres unmarked)	≥ 100 µM
O=C(O)c1cc(-c2cccnc2)nc2c(Br)cccc12	8.91 µM
CC1CCN(Cc2ccccc2OCC(O)CN2CCSCC2)CC1 (centres unmarked)	≥ 100 µM
Cc1c(-c2ccnc(Nc3cc(Br)cc(C(F)(F)F)c3)n2)sc(=O)n1C	≥ 100 µM
C[C@@H]([C@@H](O)c1ccc(O)cc1)N1CCC(O)(c2ccccc2)CC1	≥ 100 µM

A few entries again (block 4):
Compound	EC50
O=C(C1CCOCC1)N1CCCn2nc(C(O)c3ccccc3)cc2C1 (centres unmarked)	≥ 100 µM
O=C(O)c1cc(-c2cccnc2)nc2c(Br)cccc12	8.91 µM
CC1CCN(Cc2ccccc2OCC(O)CN2CCSCC2)CC1 (centres unmarked)	≥ 100 µM
Cc1c(-c2ccnc(Nc3cc(Br)cc(C(F)(F)F)c3)n2)sc(=O)n1C	≥ 100 µM
